Assay results gathered from unrelated publications.
Each numbered part is a random draw from the data of one study; scales do not carry over between parts. Substitutions count along the parent as printed.

Sample 1
Target: Ras GTPase-activating protein-binding protein 1, C-terminal RGG region (G3BP1, Homo sapiens, UniProt Q13283)
Chain of UniProt Q13283 (whole entry, looked up): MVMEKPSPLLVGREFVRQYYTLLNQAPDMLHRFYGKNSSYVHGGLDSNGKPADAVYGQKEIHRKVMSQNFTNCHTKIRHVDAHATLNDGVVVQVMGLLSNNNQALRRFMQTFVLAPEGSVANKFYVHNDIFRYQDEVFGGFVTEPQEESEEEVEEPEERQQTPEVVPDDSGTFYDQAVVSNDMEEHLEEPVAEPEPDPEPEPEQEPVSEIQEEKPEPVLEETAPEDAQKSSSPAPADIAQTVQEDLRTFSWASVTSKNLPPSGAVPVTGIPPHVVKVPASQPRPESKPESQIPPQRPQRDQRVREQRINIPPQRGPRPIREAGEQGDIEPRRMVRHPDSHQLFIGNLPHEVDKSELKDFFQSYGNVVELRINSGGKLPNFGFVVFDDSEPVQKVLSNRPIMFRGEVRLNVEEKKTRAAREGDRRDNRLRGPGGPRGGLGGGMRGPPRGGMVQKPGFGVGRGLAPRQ
Method: RNA Bind-n-Seq
Form: RNA
Matrix: in vitro
Concentration: 1 µM
Setting: whole 134-nt RNA, ends assumed
Together with: 150 mM KCl
Reference: input library
Reading: higher = stronger binding
Constant ends, left off below: GGGAGUUCUACAGUCCGACGAUC … UGGAAUUCUCGGGUGUCAAGG
Oligonucleotide | log2 enrichment
UAACUUUAGAGGAGGAUCUGAUGUAUAUGGCAGUGGACGUGGAUUUGGGGAUGGCUAUAAUGGGUAUGGAGGAGGACCUGGAGGUGGCAA | -1.48
CACAGACAACACGCACCCACACAGACACAGAGGGAAGGGGUUGGGAUGGGGACAGGGUGCACAGAAGGGCGGGGUAGGACCCCAGCCCCU | 0.0781
CCUCAAGUCCUGUGCUACACAUCGUAUGUACCGAAUCGGUUUGGAGGUUUGGAAAGUAUUAUGUUACGCCGUUCGGAUCUGCACUUCCAG | -0.747
CUGUGCUACACAUCGUAUGUACCGAAUCGGGGAAAGGGGUUUUUUUGGGGUUUUUUUGGGGAAAGUAUUAUGUUACGCCGUUCGGAUCUG | -0.289
CCUCAAGUCCUGUGCUACACAUCGUAUGUACCGAAUCGGAGGAGGGGAGGGGAAAGUAUUAUGUUACGCCGUUCGGAUCUGCACUUCCAG | -0.598
CUGUGCUACACAUCGUAUGUACCGAAUCGGGGUUUUUUUGGGUUUUUUUGGUUUUUUUGGGGAAAGUAUUAUGUUACGCCGUUCGGAUCU | -1.29
AGUCCUGUGCUACACAUCGUAUGUACCGAAUCGGGAAAAAGGGUGGGAAAAAAAGGGAAAGUAUUAUGUUACGCCGUUCGGAUCUGCACU | 0.0861
ACCAUGCAGGUGGGCAUCUUUGGGAAGUGGGGCAAGGGGGGGAUAGGGAGGGGGGUAACACUUUGGGAACAGGUGGUCCCAGGUUGUUUC | 2.53
UGGGGUAGACCAGUUCCAUGGCACUGAAUAUGUGUGCUGCCCUCAGACAAAGAUUAUUGGAUCUGUGUCAAAAGAAGAGGAAGAGGAAGA | -1.5
GUCCUGUGCUACACAUCGUAUGUACCGAAUCAAACCCCCCCAAAUUUAAACCCCCAAAAAAGUAUUAUGUUACGCCGUUCGGAUCUGCAC | -0.327
CAAGUCCUGUGCUACACAUCGUAUGUACCGAAUCGGGUUUGGGAAAAAGGGAGGGAAAGUAUUAUGUUACGCCGUUCGGAUCUGCACUUC | 2.24
UCCUGUGCUACACAUCGUAUGUACCGAAUCGGGAAAAAGGGAAAAAGGGGAAAAAGGGGAAAGUAUUAUGUUACGCCGUUCGGAUCUGCA | -0.269
UCAAGUCCUGUGCUACACAUCGUAUGUACCGAAUCGGGGAAGGGGAAGGAAGGGGAAAGUAUUAUGUUACGCCGUUCGGAUCUGCACUUC | 0.573
AGUCCUGUGCUACACAUCGUAUGUACCGAAUCGGGAGGGUUUUUUUGGGAAAAAGGGAAAGUAUUAUGUUACGCCGUUCGGAUCUGCACU | -0.515

Sample 2
Target: ABI1, truncated, D143A, DHFR fusion (Arabidopsis thaliana)
Method: DHFR PCA, deep sequencing
Matrix: yeast
Setting: methotrexate growth selection, single substitutions
Together with: (+)-ABA 2500 µM
Reference: wild-type fitted maximum
Reading: higher = stronger binding
Starting sequence: PYL1, truncated, DHFR fusion (Arabidopsis thaliana); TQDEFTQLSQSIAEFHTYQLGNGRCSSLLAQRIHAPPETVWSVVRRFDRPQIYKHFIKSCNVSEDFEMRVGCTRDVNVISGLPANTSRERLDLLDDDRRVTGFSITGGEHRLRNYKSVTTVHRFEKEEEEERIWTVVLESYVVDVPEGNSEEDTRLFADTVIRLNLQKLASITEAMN
Variant | relative binding score [%]
L93K | 99.6
E130N | 103
C60H | 51.7
L8D | 78.5
E139R | 56.8
H122K | 68.9
I133D | 107
Q2G | 80
F47I | -0.6
S11A | 96.4
S150D | 93.8
H122R | 66.3
R99G | 97.3
N177P | 99.2
K116M | 87.8
L91S | 37
L91C | 91.8
W134K | 99.9
C25Y | 65.6

Sample 3
Target: RING finger protein unkempt homolog, zinc fingers 1-6, GST-SBP tag (UNK, Homo sapiens, UniProt Q9C0B0, residues 30-357)
Chain of UniProt Q9C0B0 (30-357, looked up): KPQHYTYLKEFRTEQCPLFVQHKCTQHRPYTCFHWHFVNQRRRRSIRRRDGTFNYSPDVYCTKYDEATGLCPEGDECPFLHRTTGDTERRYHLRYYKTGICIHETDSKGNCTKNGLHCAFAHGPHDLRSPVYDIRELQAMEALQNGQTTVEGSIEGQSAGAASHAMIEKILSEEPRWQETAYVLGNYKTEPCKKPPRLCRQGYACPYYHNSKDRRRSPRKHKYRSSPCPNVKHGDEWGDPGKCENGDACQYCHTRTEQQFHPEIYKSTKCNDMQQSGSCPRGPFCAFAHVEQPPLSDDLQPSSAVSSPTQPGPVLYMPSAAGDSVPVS
Method: RNA Bind-n-Seq
Form: RNA
Matrix: in vitro
Concentration: not given
Setting: RNA with constant flanks, human and mouse sites, ends assumed
Reference: input RNA pool
Reading: higher = stronger binding
Constant ends, left off below: GGGAGUUCUACAGUCCGACGAUC … CAACAGAGGAUUGAGCAUCA
Oligonucleotide | bound/input enrichment [ratio]
AUCCCCGUGGCUCCCCCAGCAGCCCUGACCCACCUGGCUCUCUGCUCAUGUCUACAAGAAUCUUCUAUCCUGUCCUGUGCCUUAAGGCAGGAAGAUCCCCUCCCACAGAAUAGCAGGGUU | 0.642
CGUUCCUUACGAAUUGGAGCUAAUCGGCGCACAGAAAUUAUAGAAGAUUUGGCCUUCUACUCUAGUACAGUAGUAUCUCUAUUGAUGACCUGUGUAGAAAAAGCAGGAACAGAUGAGAAA | 0.722
CCUCCAGAAUUUGGGUUUCCUGAGAAGACAACAGUGAAACAGCGUUACCGGCUGCUUGGCAAUAGCCUCAACGUGCAUGUGGUAGCAAAACUCCUCACAGUCCUGUGUGAAGGAUUUGGA | 0.246
CCUAAGCAUCAGGCAGAAGUCCCAUUGGACCUGAAUGAGAGGGUUCCUUCCUGGCAGCUAUUUAGCUUUCCCAUGGAGGACAGUUAUGGGACCAGCUCAGCUCCUCUUGGCUUGAUAGCU | 0.124
AACCGUUAGUCUUUCCGACAGACGUGGCCUUUUUCAUCUAAGGGCUCAACCAGUCUAAGCAUUUCUUGUAGUUAGAGAGUGAGGUGUUCAGUGGAAGUGUGUCUCUCACAGUAUCAGGAC | 0.614
AGUUUCCAGUGAAAGUAAUAUGUAGUGCUUUUAUGAUAUUUGUGUGCAAUAUCCCCUCUUCUAUCAAGGAUAUUUGAUGUAAAGGAAAAACAAACAAACAAACAACAGAAACUCAGUUCC | 0.125
UACUUGGCAUAUCGAAAUUUUAUGAUUGACACGUAUCGUCUAAACCCCCAAGAGUAUUUAACUAGCACUGCUUGUCGGAGGAACUUGACUGGAGAUGUGUGUGCUGUGAUGAGGGUCCAU | 0.44
CUUUCUGACUAUCAGCGUAUUCGAGUGGAAAAUGUGUGUAAAAGGCUUAAUCUCCAGCCUUUAGCUUAUCUUUGGCAGAGAAACCAGGAAGAUUUGCUCAGAGAGAUGAUAUCAUCUAAC | 0.127
CCUUCCCUGCCUCUCGGUGCUAUGCGUGGUCCUCCUCGGCCUCCCACUUGUGGGGGAAAGGGUUUUCUCUUUCUUUCUGUGUGUUUUGAGCCAGCACAGUUACCAAAAUUGAACUUGCCG | 0.157
CUGCUGGAGGAUUCCAGUGCUGGGGAAGACAGUGUUCAUGACAGGUUUAUAGGUCCGCUUCCAAGAGAAGGUUCUGGGGGUUCUACCAGUGAUUAUGUCAGCCAAAGCUACUCCUACUCA | 0.115
UGCGACGCGCAGUCCACGCAGGAGAUCCAUGAGAAGGUACCACCACGUGGUCGCCUGGGGCUGGCAGAACCGCACGUUGGGGGGAGUUGGAGGGACGGGAGCACGGCAGGCCCGGGCCAC | 0.218

Sample 4
Target: Histone acetyltransferase KAT6A, winged helix 2, GST fusion (KAT6A, Homo sapiens, UniProt Q92794, residues 85-181)
Method: protein binding microarray
Form: double-stranded DNA, one strand shown
Matrix: in vitro
Concentration: not given
Setting: 8-mer, flanks averaged, mean of 2 arrays, mostly near background
Reference: not given
Reading: higher = stronger binding
Construct (chain): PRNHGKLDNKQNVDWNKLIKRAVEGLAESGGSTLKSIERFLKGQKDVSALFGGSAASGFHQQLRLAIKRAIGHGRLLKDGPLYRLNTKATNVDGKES
Oligonucleotide | E-score
CGTCTTAA | -0.0161
CTGCCGAC | 0.0244
CATCTTAA | 0.0285
GATCGACC | 0.203
CCGTTCAG | 0.0324
CCTAGCCC | 0.0781
ACGACCAA | 0.0562
ATGCTACA | -0.0645
AGGCTTCC | 0.113
GCTGCTCC | 0.0783
GTTGCATA | 0.084
ACGTCGAG | -0.0503
ACTTGCGA | 0.121
GGGAAAAC | -0.00843
CCCGCGGG | 0.226
GAGACTGA | 0.128
CCACAAGA | 0.0934
AGGGCCGG | 0.152
GTATATAA | -0.0559
TAGTCATA | -0.274
GAGCGGAC | -0.149

Sample 5
Target: CCNE1, cyclin fold, Cln2 fusion (human)
Method: yeast growth competition, sequencing
Matrix: yeast
Setting: strong parent motif
Reference: not given
Reading: higher = stronger binding
Starting sequence: BRCA2 docking peptide (human); PSIKRNLLNEFDR
Variant | normalised enrichment score
PSIKRNLLNEHDR [F11H] | 0.128
PSIARNLLNEFDR [K4A] | 0.179
PSIKRNLLNEFDC [R13C] | 1.4
PWIKRNLLNEFDR [S2W] | 0.967
PSIKRNLLNEDDR [F11D] | 0.144
PSITRNLLNEFDR [K4T] | 0.192
PSIKRNLLWEFDR [N9W] | 2.9
LSIKRNLLNEFDR [P1L] | 1.88
PSIKRNLNNEFDR [L8N] | 0.358
PSIKRILLNEFDR [N6I] | 0.147
PSISRNLLNEFDR [K4S] | 0.242
PSIKRNLLNEFDM [R13M] | 1.97
PSIKRNLLNEFGR [D12G] | 1.15
PSIKRNLLNPFDR [E10P] | 0.274
PSIKRNLLNEFDK [R13K] | 0.929
PSIDRNLLNEFDR [K4D] | -0.201
PSIKRNALNEFDR [L7A] | -0.00139
PSIKRNLVNEFDR [L8V] | 1.09
PSIKRNLLNEFYR [D12Y] | 1.35
PSIKRNLLNEFDS [R13S] | 2.58
PSIKMNLLNEFDR [R5M] | 0.561
PSIKRNLLNEFHR [D12H] | 0.515
PSIKRNLQNEFDR [L8Q] | -0.0864
ASIKRNLLNEFDR [P1A] | 1.32
PKIKRNLLNEFDR [S2K] | 1.48

Single results of other studies
Substance | target | assay | test system | setting | how to read | endpoint | value
PhoQ, residues 284 288 289 292 302 303 SMYGEC | PhoP, residues 12 14 15 18 19 LWHVM (Escherichia coli, UniProt P23836) | Sort-seq, measured: YFP reporter | E. coli | PhoQ-PhoP variant library, together with: 10 µM Mg2+ | reference: high Mg2+ state, higher = stronger signaling | fold induction | 13.9

Repeated from above (sample 5):
Variant | normalised enrichment score
PSIKRNLLNEHDR [F11H] | 0.128
PSIKRNLVNEFDR [L8V] | 1.09
PSIDRNLLNEFDR [K4D] | -0.201
LSIKRNLLNEFDR [P1L] | 1.88
PSIKRNLLNEFDC [R13C] | 1.4
PSIKRNALNEFDR [L7A] | -0.00139
PSIKRNLLNEFDM [R13M] | 1.97
PSIKMNLLNEFDR [R5M] | 0.561
PSIKRNLLNEFHR [D12H] | 0.515
PSIKRNLLNEDDR [F11D] | 0.144
PSIKRNLLNEFGR [D12G] | 1.15
PKIKRNLLNEFDR [S2K] | 1.48
PWIKRNLLNEFDR [S2W] | 0.967
PSITRNLLNEFDR [K4T] | 0.192
PSIKRNLQNEFDR [L8Q] | -0.0864
